Assay results collected from several papers.
Chain of UniProt O96017 (whole entry, looked up): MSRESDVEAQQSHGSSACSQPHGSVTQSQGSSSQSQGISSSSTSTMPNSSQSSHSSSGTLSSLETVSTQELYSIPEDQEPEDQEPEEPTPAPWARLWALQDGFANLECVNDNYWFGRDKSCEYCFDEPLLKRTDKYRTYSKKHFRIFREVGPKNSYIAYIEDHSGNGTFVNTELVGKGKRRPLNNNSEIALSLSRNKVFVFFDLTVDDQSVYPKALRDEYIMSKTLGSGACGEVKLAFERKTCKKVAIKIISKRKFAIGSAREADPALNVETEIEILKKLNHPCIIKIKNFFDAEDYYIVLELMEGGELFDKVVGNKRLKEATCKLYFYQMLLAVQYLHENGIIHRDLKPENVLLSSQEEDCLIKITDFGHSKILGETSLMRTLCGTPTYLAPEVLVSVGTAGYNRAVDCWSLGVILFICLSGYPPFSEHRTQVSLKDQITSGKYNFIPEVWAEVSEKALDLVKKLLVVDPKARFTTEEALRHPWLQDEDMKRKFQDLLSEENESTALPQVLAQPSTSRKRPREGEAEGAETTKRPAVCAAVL

Fc1cc(F)c(-c2c(Cl)nc(-c3cccs3)nc2N2CCCCC2)c(F)c1  CC50 (HEK293; cell growth or viability, resazurin; 48 h): > 50 µM
COc1ccc(-c2cc(=O)c3c(OC)cc(C)cc3o2)cc1  CC50 (HS27; cell growth or viability, MTT; 24 h): > 200 µM
NC1CCN(S(=O)(=O)c2cc(C(=O)Nc3cc(F)c(F)c(F)c3)ccc2F)CC1  CC50 (HepG2.2.15; cell growth or viability, CCK-8; 6 days): 47.6 µM
CC1=C(Cn2cc(C(C)(C)O)nn2)C(=O)c2ccccc2C1=O  CC50 (L6; cell growth or viability): 7.27 µM
[N-]=[N+]=N[C@]1(CO)O[C@@H](n2ccc(N)nc2=O)[C@@H](F)[C@@H]1O  CC50 (Huh7.5; cell growth or viability, ATP luminescence; 72 h): > 50 µM
CN1CCN(c2cnc3c(cc(C(=O)NCc4ccc(Cl)cc4)c(=O)n3CC(=O)N3CC(C)(F)C3)n2)C1=O  CC50 (MRC5; cell growth or viability): > 40 µM
COC(=O)c1c(C)ncn1CC(c1c[nH]c2ccccc12)c1c[nH]c2ccccc12  CC50 (DH82; cell growth or viability, MTS; 24 h): > 20 µM
COc1cc(/C=C2\CC/C(=C\c3ccc(O)c(OC)c3)C2=O)ccc1O  CC50 (WRL68; cell growth or viability, MTT; 48 h): 2.16 µM
O=C1C=C2NCCc3c[nH]c(c32)C1=O  CC50 (HeLa; cell growth or viability, MTT; 72 h): 50 µM
CC(C)[C@@H](C)Nc1nc(-c2cccs2)nc(Cl)c1-c1c(F)cc(O)cc1F  CC50 (HEK293; cell growth or viability, resazurin; 48 h): 21 µM
COc1cc(/C=C/C(=O)C(=Cc2ccccc2)C(=O)/C=C/c2ccc(O)c(OC)c2)ccc1O  CC50 (WRL68; cell growth or viability, MTT; 48 h): 0.1 µM
CC1(F)CN(C(=O)Cn2c(=O)c(C(=O)NCc3ccc(Cl)cc3)cc3nc(N4CCCC4=O)cnc32)C1  CC50 (MRC5; cell growth or viability, CCK-8): 16 µM
COc1cc(C)cc2oc(-c3cccc(Br)c3)cc(=O)c12  CC50 (HS27; cell growth or viability, MTT; 24 h): 104 µM
Cc1ccc(Cn2cc(C(=O)NN)c(=O)c3cc(Oc4ccccc4)ccc32)cc1  CC50 (MRC5; cell growth or viability): > 20 µM
COc1cc(C)c(-c2c(C)cc(OC)c3c(=O)cc(-c4cccc(Br)c4)oc23)c2oc(-c3cccc(Br)c3)cc(=O)c12  CC50 (HS27; cell growth or viability, MTT; 24 h): > 200 µM
CNCCCOc1cc(F)c(-c2c(Cl)nc(-c3cccs3)nc2N[C@H](C)C(C)C)c(F)c1  CC50 (HEK293; cell growth or viability, resazurin; 48 h): 1.76 µM
COc1cc(-c2cncc3c2CN(C)Cc2cc(N4CCNCC4)ccc2-3)cc(OC)c1OC  remaining activity (CHEK2 (Homo sapiens, UniProt O96017); enzyme activity, inhibitor; 1 µM): 111%
CC1=C(Cn2cc(CO)nn2)C(=O)c2ccccc2C1=O  CC50 (L6; cell growth or viability): 6.69 µM
CCOC(=O)c1cn(CC(c2cn(C)c3ccc(C)cc23)c2cn(C)c3ccc(C)cc23)c(C)c1C(=O)OC  CC50 (DH82; cell growth or viability, MTS; 24 h): > 20 µM
CC1(F)CN(C(=O)Cn2c(=O)c(C(=O)NCc3ccc(Cl)cc3)cc3nc(N4CCN(CC(=O)O)C4=O)cnc32)C1  CC50 (MRC5; cell growth or viability, CCK-8): > 40 µM
COc1cc(OC)c2c(=O)cc(-c3ccc(C(F)(F)F)cc3)oc2c1-c1c(OC)cc(OC)c2c(=O)cc(-c3ccc(C(F)(F)F)cc3)oc12  CC50 (HS27; cell growth or viability, MTT; 24 h): > 200 µM
Nc1nc2c(ncn2COCCO)c(=O)[nH]1  CC50 (B-95-8; cell growth or viability, ATP luminescence; 5 days): > 100 µM
Cc1cn(CC(c2cn(C)c3ccccc23)c2cn(C)c3ccccc23)nn1  CC50 (DH82; cell growth or viability, MTS; 24 h): > 20 µM
CNCCN1CCN(c2cnc3c(cc(C(=O)NCc4ccc(Cl)cc4)c(=O)n3CC(=O)N3CC(C)(F)C3)n2)C1=O  CC50 (MRC5; cell growth or viability, CCK-8): 23 µM
Fc1cc(F)c(-c2c(Cl)nc(-c3cccs3)nc2NCC2CCC2)c(F)c1  CC50 (HEK293; cell growth or viability, resazurin; 48 h): > 50 µM
COc1cc(OC)c2c(=O)cc(-c3ccccc3)oc2c1  CC50 (HS27; cell growth or viability, MTT; 24 h): > 200 µM
COc1cc(/C=C/C(=O)C(=Cc2ccc([N+](=O)[O-])cc2)C(=O)/C=C/c2ccc(O)c(OC)c2)ccc1O  CC50 (WRL68; cell growth or viability, MTT; 48 h): 0.53 µM
CCC[C@H](CC)Oc1ccc(C(=O)NCCOCCOCCOCC(=O)N[C@H](C(=O)N2C[C@H](O)C[C@H]2C(=O)NCc2ccc(-c3scnc3C)cc2)C(C)(C)C)cc1NC(=O)c1nnn(-c2cc(OC)ccc2OC)c1C  CC50 (SNU-C4; cell growth or viability, ATP luminescence; 24 h): > 30 µM
CC1=C(Cn2cc([Si](C)(C)C)nn2)C(=O)c2ccccc2C1=O  CC50 (L6; cell growth or viability): 18.2 µM
CC(C)(C)CNc1nc(-c2cccs2)nc(Cl)c1-c1c(F)cc(F)cc1F  CC50 (HEK293; cell growth or viability, resazurin; 48 h): 40.1 µM
CC1(F)CN(C(=O)Cn2c(=O)c(C(=O)NCc3ccc(Cl)cc3)cc3nccnc32)C1  CC50 (MRC5; cell growth or viability, CCK-8): > 40 µM
Nc1ccn(C[C@@H](CO)OCP(=O)(O)O)c(=O)n1  CC50 (ARPE-19; cell growth or viability, neutral red): > 100 µM
NC1=CC2=NCCc3c[nH]c(c32)C1=O  CC50 (HeLa; cell growth or viability, MTT; 72 h): 0.1 µM
CC1(F)CN(C(=O)Cn2c(=O)c(C(=O)NCc3ccc(Cl)cc3)cc3nc(N4CCOC4=O)cnc32)C1  CC50 (MRC5; cell growth or viability): 32.6 µM
Cn1cc2c3c1C(=O)C(NCCc1ccc(O)cc1)=CC3=[N+](C)CC2  CC50 (HeLa; cell growth or viability, MTT; 72 h): 0.78 µM
CC1(C)CN(C(=O)Cn2c(=O)c(C(=O)NCc3ccc(Cl)cc3)cc3nccnc32)C1  CC50 (MRC5; cell growth or viability, CCK-8): > 40 µM
COc1cc(C)c(-c2c(C)cc(OC)c3c(=O)cc(-c4ccccc4)oc23)c2oc(-c3ccccc3)cc(=O)c12  CC50 (HS27; cell growth or viability, MTT; 24 h): > 200 µM
CC(C)C(=O)Nc1nc(-c2cccs2)nc(Cl)c1-c1c(F)cc(F)cc1F  CC50 (HEK293; cell growth or viability, resazurin; 48 h): > 50 µM
CC1=C(Cc2cn(Cc3ccccc3)nn2)C(=O)c2ccccc2C1=O  CC50 (L6; cell growth or viability): 49.2 µM
CS(=O)(=O)CCNc1nc(-c2cccs2)nc(Cl)c1-c1c(F)cc(F)cc1F  CC50 (HEK293; cell growth or viability, resazurin; 48 h): 10.4 µM
CNc1ncc2c(/C=C/C(=O)N3CCC(OC)CC3)nn(Cc3cccc(C(F)(F)F)c3)c2n1  remaining activity (SYK (Homo sapiens, UniProt P43405); enzyme activity, inhibitor, radiometric; 1 µM): 100%
COc1ccc(-c2cc(=O)c3c(OC)cc(C)c(-c4c(C)cc(OC)c5c(=O)cc(-c6ccc(OC)cc6)oc45)c3o2)cc1  CC50 (HS27; cell growth or viability, MTT; 24 h): > 200 µM
CC1(CNc2nc(-c3cccs3)nc(Cl)c2-c2c(F)cc([N+](=O)[O-])cc2F)COC1  CC50 (HEK293; cell growth or viability, resazurin; 48 h): > 50 µM

For quick reference, copied from above:
COc1cc(-c2cncc3c2CN(C)Cc2cc(N4CCNCC4)ccc2-3)cc(OC)c1OC  remaining activity (CHEK2 (Homo sapiens, UniProt O96017); enzyme activity, inhibitor; 1 µM): 111%
CC1=C(Cn2cc(CO)nn2)C(=O)c2ccccc2C1=O  CC50 (L6; cell growth or viability): 6.69 µM
CCOC(=O)c1cn(CC(c2cn(C)c3ccc(C)cc23)c2cn(C)c3ccc(C)cc23)c(C)c1C(=O)OC  CC50 (DH82; cell growth or viability, MTS; 24 h): > 20 µM
CC1(F)CN(C(=O)Cn2c(=O)c(C(=O)NCc3ccc(Cl)cc3)cc3nc(N4CCN(CC(=O)O)C4=O)cnc32)C1  CC50 (MRC5; cell growth or viability, CCK-8): > 40 µM
COc1cc(OC)c2c(=O)cc(-c3ccc(C(F)(F)F)cc3)oc2c1-c1c(OC)cc(OC)c2c(=O)cc(-c3ccc(C(F)(F)F)cc3)oc12  CC50 (HS27; cell growth or viability, MTT; 24 h): > 200 µM
